Assay results of several laboratories.
Each line is one published result; not all experiments were run side by side. Numbers after ± are the reported error.

Compound | assay | test system | setting | how to read | endpoint | result
CC(C)CC(=O)OC[C@H]1O[C@@](C#N)(c2ccc3c(N)ncnn23)[C@H](O)[C@@H]1O |  | human plasma | 0.9 to 90 µM, mean over concentrations |  | unbound fraction | 0.192
O=C(c1ccc(F)c(F)c1Nc1ccc(I)cc1F)N1CC(O)([C@@H]2CCCCN2)C1 |  | human patients | oral, 1 mg/kg, dose expansion |  | treatment-related AE causing dose modification | 8%
CCN1[C@@H](C(=O)NC23CCC(C(=O)O)(CC2)CC3)[C@H](c2cccc(Cl)c2F)[C@]2(C(=O)Nc3cc(Cl)ccc32)C12CCCCC2 |  | patients with advanced solid tumours | oral, 100 mg |  | Headache incidence | 9.1%
CC(C)C[C@@H]1NC(=O)CNC(=O)[C@H](CC(N)=O)NC(=O)[C@H](CCCNC(=N)N)NC(=O)[C@H]([C@@H](C)O)NC(=O)[C@@H]2CSSC[C@@H]3NC(=O)[C@H]([C@@H](C)O)NC(=O)CNC(=O)CNC(=O)[C@H](C(C)C)NC(=O)[C@@H]4CSSC[C@H](NC(=O)[C@H]([C@@H](C)O)NC(=O)[C@H](CSSC[C@H](NC(=O)[C@H](C(C)C)NC(=O)[C@@H]5CCCN5C1=O)C(=O)NCC(=O)N[C@@H](CCC(=O)O)C(=O)N[C@@H]([C@@H](C)O)C(=O)N4)NC(=O)CNC(=O)[C@@H]1CCCN1C(=O)[C@H]([C@@H](C)O)NC(=O)[C@H](CC(N)=O)NC3=O)C(=O)N[C@@H](CO)C(=O)N[C@@H](CCCCN)C(=O)N1CCC[C@H]1C(=O)N[C@@H](C(C)C)C(=O)N2 | HPLC | water | 180 µM, 14 days, 37 °C, deamidation stability |  | remaining peptide | 96.9 ± 0.6%
CC(C)C[C@H](NC(=O)[C@H](Cc1ccccc1)NC(=O)[C@H](Cc1ccccc1)NC(=O)Cc1ccc(-c2ccccc2)cc1)C(=O)N[C@@H](CCCCN)C(=O)N[C@@H](CCCNC(=N)N)C(=O)N[C@H](C(=O)N[C@@H](Cc1c[nH]c2ccccc12)C(=O)N[C@@H](CCCCN)C(=O)N[C@@H](CCCNC(=N)N)C(=O)O)C(C)C |  | human liver microsomes |  |  | hepatic clearance | 16 mL/min/kg
O=S(=O)(Nc1ccccc1)c1ccc(NC(=S)Nc2ccccc2)cc1 | measured: CREA | female mouse, blood | oral, 5 mg/kg daily, 14 days |  | blood chemistry level | 0.22 mg/dL
CN1CCN(S(=O)(=O)c2cc([N+](=O)[O-])ccc2N(CCOS(C)(=O)=O)CCOS(C)(=O)=O)CC1 |  | naive female NSG mice, plasma | intraperitoneal, 10 mg/kg |  | AUMC(0-inf) | 0.85 µM·h²
c1ccc2c(c1)ccc1c3ccccc3ccc21 |  | fresh water | 12 (unit not given), 20 °C, S100 sampler, 100 µm |  | log K(PDMS-water) | 4.72 ± 0.01
[Cl][212Pb][Cl] |  | athymic mice, C4-2 xenograft, bladder | intravenous, 2 h, 212Pb-labelled |  | tissue uptake | 1.73 ± 0.1 %ID/g
C=CC(=O)N1CC[C@H](n2nc(C#Cc3cc(OC)cc(OC)c3)c3c(N)ncnc32)C1 |  | patients with advanced solid tumours | oral, dose not given, Diarrhea, any grade, QD, added: phosphate-binding therapy |  | adverse drug reaction incidence | 17.5%
Nc1ncnc2c1ncn2[C@@H]1O[C@@H]2COP(=O)([S-])O[C@@H]3[C@H](O)[C@@H](COP([O-])(=S)O[C@H]2[C@H]1O)O[C@H]3n1cnc2c(N)ncnc21.[Na+].[Na+] (some centres unmarked) |  | non-tumor-bearing mice, serum | intravenous, 1 mg/kg, toxicity study |  | BUN | 8.2 ± 1.85 mmol/L
Clc1ccc(-c2cc(Cl)c(Cl)c(Cl)c2)cc1Cl |  | PDMS-water partitioning | PCB compilation | relative to: maximum over minimum K | literature range factor | 2
CC(C)C[C@@H]1NC(=O)CNC(=O)[C@H](CC(N)=O)NC(=O)[C@H](CCCNC(=N)N)NC(=O)[C@H]([C@@H](C)O)NC(=O)[C@@H]2CSSC[C@@H]3NC(=O)[C@H]([C@@H](C)O)NC(=O)CNC(=O)CNC(=O)[C@H](C(C)C)NC(=O)[C@@H]4CSSC[C@H](NC(=O)[C@H]([C@@H](C)O)NC(=O)[C@H](CSSC[C@H](NC(=O)[C@H](C(C)C)NC(=O)[C@@H]5CCCN5C1=O)C(=O)NCC(=O)N[C@@H](CCC(=O)O)C(=O)N[C@@H](CCCCN)C(=O)N4)NC(=O)CNC(=O)[C@@H]1CCCN1C(=O)[C@H]([C@@H](C)O)NC(=O)[C@H](CC(N)=O)NC3=O)C(=O)N[C@@H](CO)C(=O)N[C@@H](Cc1c[nH]c3ccccc13)C(=O)N1CCC[C@H]1C(=O)N[C@@H](C(C)C)C(=O)N2 | HPLC | ammonium bicarbonate | 180 µM, 14 days, pH 9.0, 25 °C, deamidation stability |  | remaining peptide | 89.6 ± 1.4%
C=CCNc1c(O)cc2c(O)c1C[C@@H](C)C[C@H](OC)[C@H](O)[C@@H](C)/C=C(\C)[C@H](OC(N)=O)[C@@H](OC)/C=C\C=C(/C)C(=O)N2 |  | unresectable or metastatic STS, GIST, other | intravenous, 300 mg/m^2 |  | patients with diarrhoea TEAE | 0%
COc1ccc(-c2c(-c3ccc(C#N)c(F)c3)nc(N3CCC(N)CC3)n(C)c2=O)cc1F | measured: Dysgeusia | human patients | oral, dose not given, any grade, dose escalation, NG |  | treatment-related adverse event incidence | 4%
CO[C@H]1C[C@@H]2CC[C@@H](C)[C@@](O)(O2)C(=O)C(=O)N2CCCC[C@H]2C(=O)O[C@H]([C@H](C)C[C@@H]2CC[C@@H](OC(=O)NCCOCCOCCOCCOCCOCCOCCOCCOCCC(=O)N3CCc4cc(Cn5nc(-c6ccc7oc(N)nc7c6)c6c(N)ncnc65)ccc4C3)[C@H](OC)C2)C[C@@H](O)[C@H](C)/C=C(\C)[C@@H](O)[C@@H](OC)C(=O)[C@H](C)C[C@H](C)/C=C/C=C/C=C/1C |  | patients with advanced solid tumours | intravenous, 12 mg weekly, any grade |  | nausea incidence | 58%
CCN(CCO)CCCC(C)Nc1ccnc2cc(Cl)ccc12 (centres unmarked) |  | newly diagnosed glioblastoma patients | oral, 400 mg/dose, grade 4, added: radiotherapy and temozolomide |  | white cell decrease patients | 14%
C[C@]1(CO)Cc2ncn(-c3ccc(C#N)c(Cl)c3)c2C(=O)O1 |  | healthy Japanese adults, plasma | 80 mg single dose |  | AUC(0-inf) | 22 µM·h
COc1cccc2c1CCCC2CCCN1CCN(C2CCCCC2)CC1 (centres unmarked) |  | CD-1 mouse, male, plasma | intraperitoneal, 1 mg/kg |  | Tmax | 30 min

Compound | assay | test system | setting | how to read | endpoint | result
CN(C(=O)n1cnc(-c2ccc[n+]([O-])c2)c1)C1CCCCC1 |  | Wistar rat, hippocampus | oral, 10 mg/kg/day, 4 h, repeated 5 days |  | concentration | 110 ± 45.6 ng/g
O=C1Nc2cc3[nH]nc(-c4ccncc4)c3cc2CN1Cc1ccccc1 | measured: retinal detachment | patients with advanced solid tumours | intravenous, dose not given |  | patients with TEAE | 15%
CC(=O)c1c(C)c2cnc(Nc3ccc(C4CCN(CCS(C)(=O)=O)CC4)cn3)nc2n(C2CCCC2)c1=O |  | mouse plasma |  |  | plasma stability t1/2 | > 400 min
c1ccc2c(c1)-c1ccc3ccc4cccc5cc-2c1c3c45 |  | fresh water | 20 °C, S30-1 sampler, 30 µm |  | log K(PDMS-water) | 5.5 ± 0.09
CC(C)C[C@H](NC(=O)[C@H](CCCCN)NC(=O)OCC1c2ccccc2-c2ccccc21)C(=O)N[C@H](C(=O)N[C@@H](Cc1ccccc1)C(=O)N[C@@H](Cc1ccccc1)C(=O)N[C@@H](CCCCN)C(=O)NCC(=O)N[C@@H](Cc1ccccc1)C(=O)N[C@@H](C)C(=O)N[C@@H](Cc1c[nH]c2ccccc12)C(=O)N[C@@H](CC(N)=O)C(=O)N[C@H](C(=O)N[C@H]1CSSC[C@@H](C(=O)N[C@@H](Cc2c[nH]cn2)C(=O)N[C@@H](CCCNC(=N)N)C(=O)N[C@@H](CCCNC(=N)N)C(=O)N[C@@H](C)C(=O)N[C@@H](CC(N)=O)C(N)=O)NC(=O)[C@H](C(C)C)NC(=O)[C@H](CCCNC(=N)N)NC(=O)[C@H](C(C)C)NC(=O)CNC(=O)[C@H](CC(N)=O)NC(=O)[C@H](CCCNC(=N)N)NC(=O)[C@H](Cc2ccc(O)cc2)NC(=O)[C@H](C(C)C)NC1=O)C(C)C)C(C)C |  | ICR mice, serum | intraperitoneal, 5 mg/kg, day 5 |  | creatinine | 85.8 ± 3.48 µmol/L
Clc1ccc(-c2ccc(Cl)c(Cl)c2)c(Cl)c1 |  | fresh water | 20 °C |  | log K(PDMS-water) | 5.65 ± 0.04
CC[C@H](C)[C@H](NC(=O)[C@H](CO)NC(=O)[C@H](CCCNC(=N)N)NC(C)=O)C(=O)N[C@H]1CSSC[C@@H](C(=O)N[C@H](C(N)=O)[C@@H](C)O)NC(=O)[C@H](CCCNC(=N)N)NC(=O)[C@H](Cc2cnc[nH]2)NC(=O)[C@H](C)NC(=O)CNC(=O)[C@H](Cc2c[nH]c3ccccc23)NC(=O)[C@H](CC(=O)O)NC(=O)[C@H](CCC(N)=O)NC(=O)[C@H](Cc2ccc(O)cc2)NC(=O)[C@H](C(C)C)NC1=O | isocratic RP-HPLC | C18 column | pH 7.4, 25 °C, elution method 2 | higher = more lipophilic | log retention factor | -0.509
COc1ncccc1-c1cnn2ccc(N3CCN(C(=O)OC(C)C)CC3)nc12 |  | rat, CCI cold allodynia model, brain | oral, 30 mg/kg, 240 min |  | drug concentration | 10 µM
CN1CCN(c2ccc(Nc3nccc(-c4ccc(C#N)cc4)n3)cc2C(F)(F)F)CC1 |  | zebrafish embryos | 50 µM, 5 d |  | toxicity | 0%
COc1cc2c(Oc3ccc4[nH]c(C)cc4c3F)ccnc2cc1OCC1(N)CC1 |  | paediatric recurrent refractory sarcoma | 12 mg |  | grade 3 gingival bleeding | 0%
CN1CC[C@@H](c2c(O)cc(O)c3c(=O)cc(-c4ccc(C(F)(F)F)cc4Cl)oc23)[C@@H]1CO | measured: Pneumonia | relapsed B-cell malignancies or AML | oral, 100 mg, grade 3-4, continuous dosing |  | patients with adverse event | 12.5%
CCc1ccc(CC/C=C/c2ccc3c(c2)C(=O)CC3)cc1 |  | Sprague-Dawley rat, male | oral, 450 mg/kg/day, 14 days |  | Mononuclear percentage | 3%
N=C(N)NCCNC(=O)C1(Nc2ccccc2)CCN(Cc2ccccc2)CC1 |  | Sprague-Dawley rat, female, urine | oral, 50 mg/kg, time not given |  | unchanged urinary recovery | 0.6 ± 0.3%
C=CC(=O)Nc1cc(Nc2nccc(Nc3cc(Cl)c(F)cc3C(C)(C)O)n2)c(OC)cc1N1CC[C@@H](N(C)C)C1 |  | human patients | oral, 200 mg, treatment-emergent adverse events |  | patients with hypokalaemia | 0%
COc1cc(C2C3=C(COC3=O)N(CCO)c3cc4c(cc32)CCC4)cc(OC)c1OC (centres unmarked) |  | female Sprague-Dawley rats | intraperitoneal, 200 mg/kg, 24 h, single dose, mean |  | body weight | 200 g
Cc1ccccc1C(=O)NN=Cc1ccc(O)c(Br)c1 |  | normal C3H/HeN mouse, plasma | intraperitoneal, 1.6 mg/kg |  | AUC(0-t) | 175 ng·h/mL
COc1ccc(C[C@@H]2NC(=O)[C@H]([C@@H](C)O)NC(=O)[C@@H]3[C@@H]4CCN3C(=O)[C@@H]3Cc5cn(c6ccc(F)cc56)CCCCCCN(Cc5ccc(cc5)CCNC(=O)[C@]5(C)CCCN5C2=O)C(=O)CCC(=O)N[C@@H](C)C(=O)N[C@H](CNC(=O)CCCCC[N+](C)(C)C)C(=O)N[C@@H](Cc2cccc(c2)CNC(=O)CO4)C(=O)N3)cc1 | measured: Nausea | humans | concentration not given, Study-003 |  | participants with adverse event | 3.2%
O=C(Nc1ccccc1)C1CCN(C(=O)Oc2cccnc2)CC1 | Bond-Lader VAS | healthy women | oral, 100 mg | relative to: pre-dose baseline, direction not given | change in Tense-Relaxed score | 16
CC(C)n1c(C2CCNCC2)nc2c([N+](=O)[O-])c(Br)c(Br)cc21 | measured: Asthenia | AML patients | 125 mg |  | adverse events any grade | 46%

Excerpt of the above:
Compound | assay | test system | setting | how to read | endpoint | result
Nc1ncnc2c1ncn2[C@@H]1O[C@@H]2COP(=O)([S-])O[C@@H]3[C@H](O)[C@@H](COP([O-])(=S)O[C@H]2[C@H]1O)O[C@H]3n1cnc2c(N)ncnc21.[Na+].[Na+] (some centres unmarked) |  | non-tumor-bearing mice, serum | intravenous, 1 mg/kg, toxicity study |  | BUN | 8.2 ± 1.85 mmol/L
Clc1ccc(-c2cc(Cl)c(Cl)c(Cl)c2)cc1Cl |  | PDMS-water partitioning | PCB compilation | relative to: maximum over minimum K | literature range factor | 2
CC(C)C[C@@H]1NC(=O)CNC(=O)[C@H](CC(N)=O)NC(=O)[C@H](CCCNC(=N)N)NC(=O)[C@H]([C@@H](C)O)NC(=O)[C@@H]2CSSC[C@@H]3NC(=O)[C@H]([C@@H](C)O)NC(=O)CNC(=O)CNC(=O)[C@H](C(C)C)NC(=O)[C@@H]4CSSC[C@H](NC(=O)[C@H]([C@@H](C)O)NC(=O)[C@H](CSSC[C@H](NC(=O)[C@H](C(C)C)NC(=O)[C@@H]5CCCN5C1=O)C(=O)NCC(=O)N[C@@H](CCC(=O)O)C(=O)N[C@@H](CCCCN)C(=O)N4)NC(=O)CNC(=O)[C@@H]1CCCN1C(=O)[C@H]([C@@H](C)O)NC(=O)[C@H](CC(N)=O)NC3=O)C(=O)N[C@@H](CO)C(=O)N[C@@H](Cc1c[nH]c3ccccc13)C(=O)N1CCC[C@H]1C(=O)N[C@@H](C(C)C)C(=O)N2 | HPLC | ammonium bicarbonate | 180 µM, 14 days, pH 9.0, 25 °C, deamidation stability |  | remaining peptide | 89.6 ± 1.4%
C=CCNc1c(O)cc2c(O)c1C[C@@H](C)C[C@H](OC)[C@H](O)[C@@H](C)/C=C(\C)[C@H](OC(N)=O)[C@@H](OC)/C=C\C=C(/C)C(=O)N2 |  | unresectable or metastatic STS, GIST, other | intravenous, 300 mg/m^2 |  | patients with diarrhoea TEAE | 0%
